Measurements collected from several papers.
Compare with care: the assays were run in different laboratories.
BRSK2: Serine/threonine-protein kinase BRSK2 (BRSK2, Homo sapiens, UniProt Q8IWQ3)
UniProt Q8IWQ3, sequence (whole entry, looked up): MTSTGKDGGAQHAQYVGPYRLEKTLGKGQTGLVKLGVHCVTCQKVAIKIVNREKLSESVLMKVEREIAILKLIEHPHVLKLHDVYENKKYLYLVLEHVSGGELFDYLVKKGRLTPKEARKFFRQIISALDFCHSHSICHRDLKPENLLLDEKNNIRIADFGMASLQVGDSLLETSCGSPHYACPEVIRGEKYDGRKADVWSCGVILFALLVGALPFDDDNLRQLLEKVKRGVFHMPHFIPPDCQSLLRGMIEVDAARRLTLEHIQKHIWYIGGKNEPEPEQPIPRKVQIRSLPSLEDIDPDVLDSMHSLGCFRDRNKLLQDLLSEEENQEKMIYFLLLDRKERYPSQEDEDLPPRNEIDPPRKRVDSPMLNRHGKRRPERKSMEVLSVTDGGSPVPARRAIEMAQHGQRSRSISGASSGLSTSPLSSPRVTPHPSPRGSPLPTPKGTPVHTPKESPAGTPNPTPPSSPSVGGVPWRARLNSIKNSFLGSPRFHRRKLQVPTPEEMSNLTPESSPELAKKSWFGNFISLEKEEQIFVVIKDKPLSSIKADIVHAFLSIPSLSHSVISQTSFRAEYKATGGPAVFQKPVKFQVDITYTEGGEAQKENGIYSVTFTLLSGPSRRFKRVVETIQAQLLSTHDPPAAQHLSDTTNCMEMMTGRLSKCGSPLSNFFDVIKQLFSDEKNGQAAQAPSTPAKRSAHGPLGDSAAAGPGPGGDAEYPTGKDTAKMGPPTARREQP
UniProt P29597, sequence (whole entry, looked up): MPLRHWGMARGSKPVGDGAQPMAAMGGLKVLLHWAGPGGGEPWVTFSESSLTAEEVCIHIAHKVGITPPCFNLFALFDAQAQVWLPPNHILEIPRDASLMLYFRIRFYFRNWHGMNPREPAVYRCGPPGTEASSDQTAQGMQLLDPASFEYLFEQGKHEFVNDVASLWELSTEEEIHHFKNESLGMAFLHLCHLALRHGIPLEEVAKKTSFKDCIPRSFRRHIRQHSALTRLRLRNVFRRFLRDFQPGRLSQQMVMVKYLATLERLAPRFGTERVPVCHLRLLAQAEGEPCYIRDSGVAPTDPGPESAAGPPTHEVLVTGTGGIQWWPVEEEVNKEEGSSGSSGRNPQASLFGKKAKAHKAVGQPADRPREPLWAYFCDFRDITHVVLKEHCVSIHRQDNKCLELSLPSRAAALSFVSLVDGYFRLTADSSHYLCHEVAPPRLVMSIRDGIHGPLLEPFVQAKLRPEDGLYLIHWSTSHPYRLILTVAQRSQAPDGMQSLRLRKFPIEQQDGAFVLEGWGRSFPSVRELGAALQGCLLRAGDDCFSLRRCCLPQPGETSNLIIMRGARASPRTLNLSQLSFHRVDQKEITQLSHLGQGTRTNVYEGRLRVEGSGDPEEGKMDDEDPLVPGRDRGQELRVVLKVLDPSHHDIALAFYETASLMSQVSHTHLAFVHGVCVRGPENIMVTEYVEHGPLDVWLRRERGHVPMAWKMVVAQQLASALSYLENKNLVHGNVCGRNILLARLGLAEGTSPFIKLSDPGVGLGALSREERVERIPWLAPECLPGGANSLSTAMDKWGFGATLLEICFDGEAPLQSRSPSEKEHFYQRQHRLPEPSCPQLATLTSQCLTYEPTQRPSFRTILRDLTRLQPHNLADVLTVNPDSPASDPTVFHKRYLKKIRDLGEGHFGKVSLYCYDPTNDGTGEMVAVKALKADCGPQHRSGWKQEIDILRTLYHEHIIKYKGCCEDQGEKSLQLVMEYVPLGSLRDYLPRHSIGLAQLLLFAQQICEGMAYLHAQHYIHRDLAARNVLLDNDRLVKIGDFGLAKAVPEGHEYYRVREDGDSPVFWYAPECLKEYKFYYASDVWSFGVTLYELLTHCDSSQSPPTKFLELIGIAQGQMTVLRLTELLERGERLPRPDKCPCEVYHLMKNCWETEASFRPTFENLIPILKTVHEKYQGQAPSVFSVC
UniProt P36896, sequence (whole entry, looked up): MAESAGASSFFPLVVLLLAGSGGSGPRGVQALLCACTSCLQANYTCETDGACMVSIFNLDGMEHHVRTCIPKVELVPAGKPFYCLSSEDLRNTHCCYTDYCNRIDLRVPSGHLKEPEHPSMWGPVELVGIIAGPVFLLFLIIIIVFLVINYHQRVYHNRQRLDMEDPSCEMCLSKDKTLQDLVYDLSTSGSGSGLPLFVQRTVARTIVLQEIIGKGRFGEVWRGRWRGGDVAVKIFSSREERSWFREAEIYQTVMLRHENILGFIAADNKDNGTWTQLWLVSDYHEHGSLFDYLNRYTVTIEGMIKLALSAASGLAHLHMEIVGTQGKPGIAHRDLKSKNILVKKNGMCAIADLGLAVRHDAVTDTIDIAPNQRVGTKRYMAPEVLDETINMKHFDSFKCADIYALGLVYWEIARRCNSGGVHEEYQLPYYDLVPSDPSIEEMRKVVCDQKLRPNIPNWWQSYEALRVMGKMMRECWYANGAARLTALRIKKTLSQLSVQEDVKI

Compound = Cc1cc(NS(=O)(=O)c2ccc(N=NN(C)O)cc2)no1; test = ABTS scavenging; conditions = 180 µg/mL; measurement = inhibition; result = 39.9%
Compound = CN(Cc1ccc(C(C)(C)C)cc1)Cc1cccc2ccccc12; tested on = Trichophyton rubrum; test = microbial growth, disc diffusion; test system = ATCC28188; conditions = 0.004 µg/mL, 6 days; measurement = inhibition zone; result = 55 mm
Compound = COc1cccc2c(NN=Cc3cccc(F)c3)ccnc12; tested on = HEK293; test = cell growth or viability; measurement = IC50; result = > 10 µM
Compound = Cc1c(Cc2ccccc2)c(=O)oc2c(C)c(OCC(=O)NN=Cc3ccc([N+](=O)[O-])cc3)ccc12; tested on = PC-3; test = cell growth or viability, MTT; conditions = 1000 µg/mL; measurement = viability; result = 4.06%
Compound = O=C(Nc1ccc(Oc2nnc(-c3ccc(Cl)cc3)c3ccccc23)cc1)c1ccccc1; tested on = MCF7; test = cell growth or viability, MTT; conditions = 1.25 µM, 24 h; measurement = viability; result = 4.74%
Compound = C=CCOc1ccc2c(C)c(CC)c(=O)oc2c1C; tested on = PC-3; test = cell growth or viability, MTT; conditions = 250 µg/mL; measurement = viability; result = 36.7%
Compound = Nc1ncnc2c1c(/C=C/C(=O)N1CCC(c3ccccc3)CC1)nn2CC1CCCC1; tested on = FLO-1; test = cell growth or viability, resazurin; conditions = 5 days; measurement = EC50; result = > 30 µM
Compound = O=C1O[C@H]([C@@H](O)CO)C(O)=C1O; test = ABTS scavenging; conditions = 150 µg/mL; measurement = inhibition; result = 99%
Compound = Cc1cc([C@@H](C)Nc2ccccc2C(=O)O)c2nc(N3CCC(F)(F)CC3)c(C#N)c(=O)n2c1; tested on = ACVR1B (Homo sapiens, UniProt P36896); test = binding, competition with immobilised ligand; conditions = 1 µM; measurement = remaining binding; result = 64%
Compound = CCCOc1ccc2c(C)c(CC)c(=O)oc2c1C; tested on = PC-3; test = cell growth or viability, MTT; conditions = 31.25 µg/mL; measurement = viability; result = 99.1%
Compound = O=C(Nc1ccc(Oc2nnc(-c3ccc(Cl)cc3)c3ccccc23)cc1)c1cccc([N+](=O)[O-])c1; tested on = MCF7; test = cell growth or viability, MTT; conditions = 78 nM, 24 h; measurement = viability; result = 95.7%
Compound = CNC(=O)c1cc(Oc2ccc(NC(=O)Nc3ccc(Cl)c(C(F)(F)F)c3)cc2)ccn1; tested on = WM 266-4; test = cell growth or viability, MTT; conditions = 0.4 µM, 48 h; measurement = viability; result = 67.6%
Compound = CCN(Cc1ccccn1)c1ccc(CO)c(Cl)c1; tested on = RBE; test = cell growth or viability, ATP luminescence; conditions = 46 µM, 72 h; measurement = inhibition; result = 52%
Compound = CCCCC(=O)Nc1ccc(-c2ccc3ncn(CCC)c(=O)c3c2)cn1; tested on = Non-receptor tyrosine-protein kinase TYK2, JH1 (TYK2, Homo sapiens, UniProt P29597); test = binding, competition with immobilised ligand; conditions = 0.5 µM; measurement = remaining binding; result = 90%
Compound = Cc1ccc(Cn2nc(-c3ccc(CO)o3)c3ccccc32)cc1; tested on = RBE; test = cell growth or viability, ATP luminescence; conditions = 46 µM, 72 h; measurement = inhibition; result = 59%
Compound = CC(=NNC(N)=S)c1ccc(Nc2nnc(-c3ccc(Cl)cc3)c3ccccc23)cc1; tested on = MCF7; test = cell growth or viability, MTT; conditions = 0.156 µM, 24 h; measurement = viability; result = 50.5%
Compound = C[C@@H]1CC[C@@H]([C@](O)(CNCc2ccc(F)cc2)COCc2ccc(F)cc2)[C@H](OCc2ccc(F)cc2)C1; tested on = HeLa; test = cell growth or viability, MTT; conditions = 30 µM, 72 h; measurement = inhibition; result = 96.8%
Compound = COc1cc(Nc2ncc3c(n2)-c2ccc(Cl)cc2C(c2c(F)cccc2OC)=NC3)ccc1C(=O)O; tested on = MB002; test = cell growth or viability; conditions = 7 days; measurement = IC50; result = 0.0147 µM
Compound = CC(=NNC(=O)c1ccccc1Cl)c1ccc(Nc2nnc(-c3ccc(Cl)cc3)c3ccccc23)cc1; tested on = MCF7; test = cell growth or viability, MTT; conditions = 2.5 µM; measurement = cell death; result = 77%
Compound = Cc1nc(Nc2ncc(C(=O)Nc3c(C)cccc3Cl)s2)cc(N2CC[C@H](O)C2)n1; tested on = KARPAS-299; test = cell growth or viability, ATP luminescence; conditions = 10 µM, 72 h; measurement = inhibition; result = 34%
Compound = Cc1cn(-c2cc(NC(=O)c3ccc(C)c(Nc4nccc(-c5cccnc5)n4)c3)cc(C(F)(F)F)c2)cn1; tested on = MB002; test = cell growth or viability; conditions = 7 days; measurement = IC50; result = > 10 µM
Compound = CC(=NNC(=S)Nc1ccccc1)c1ccc(Nc2nnc(-c3ccc(Cl)cc3)c3ccccc23)cc1; tested on = MCF7; test = cell growth or viability, MTT; conditions = 5 µM, 24 h; measurement = viability; result = 7.22%
Compound = Cc1[nH]c(C)c(-c2ccc(OCc3cc(F)cc(F)c3)nc2)c(=O)c1Br; tested on = HEK293; test = cell growth or viability; measurement = IC50; result = > 10 µM
Compound = COc1cc(-c2cncc3c2CN(C)Cc2cc(N4CCNCC4)ccc2-3)cc(OC)c1OC; tested on = BRSK2; test = enzyme activity, inhibitor; conditions = 1 µM; measurement = remaining activity; result = 118%
Compound = COc1ccccc1CNC[C@@](C)(O)[C@@H]1CC[C@@H](C)C[C@H]1OCc1ccccc1; tested on = HeLa; test = cell growth or viability, MTT; conditions = 10 µM, 72 h; measurement = inhibition; result = 81.8%
Compound = Cc1cc(=O)c(-c2ccc(Oc3cccc(C(F)(F)F)c3)cc2)c(C)[nH]1; tested on = HEK293; test = cell growth or viability; measurement = IC50; result = > 10 µM
Compound = CC(=O)Nc1ccc(Oc2nnc(-c3ccc(Cl)cc3)c3ccccc23)cc1; tested on = MCF7; test = cell growth or viability, MTT; conditions = 78 nM, 24 h; measurement = viability; result = 79.4%
Compound = C=CC(=O)N1CCC(COCC(=O)N2CCN(c3nc(-c4cnc(N)nc4C(F)F)nc(N4CCOC[C@@H]4C)n3)CC2)CC1; tested on = BRSK2; test = binding, competition with immobilised ligand; conditions = 1 µM; measurement = remaining binding; result = 100%
Compound = CCNC(=S)NNC(=O)COc1ccc2c(C)c(CC)c(=O)oc2c1C; tested on = PC-3; test = cell growth or viability, MTT; conditions = 1000 µg/mL; measurement = viability; result = 2.75%
Compound = CCCCCCCc1c(C)[nH]c2ccccc2c1=O; tested on = HEK293; test = cell growth or viability; measurement = IC50; result = > 10 µM
Compound = CC(=NNC(=O)c1ccccc1Br)c1ccc(Nc2nnc(-c3ccc(Cl)cc3)c3ccccc23)cc1; tested on = MCF7; test = cell growth or viability, MTT; conditions = 1.25 µM; measurement = cell death; result = 68.7%
Compound = CNc1ncc2c(/C=C/C(=O)N3CCC(OC)CC3)nn(Cc3ccccc3)c2n1; tested on = FLO-1; test = cell growth or viability, resazurin; conditions = 5 days; measurement = EC50; result = 8.05 µM

A few entries again:
Compound = CCCCCCCc1c(C)[nH]c2ccccc2c1=O; tested on = HEK293; test = cell growth or viability; measurement = IC50; result = > 10 µM
Compound = CC(=NNC(=O)c1ccccc1Br)c1ccc(Nc2nnc(-c3ccc(Cl)cc3)c3ccccc23)cc1; tested on = MCF7; test = cell growth or viability, MTT; conditions = 1.25 µM; measurement = cell death; result = 68.7%
Compound = CNc1ncc2c(/C=C/C(=O)N3CCC(OC)CC3)nn(Cc3ccccc3)c2n1; tested on = FLO-1; test = cell growth or viability, resazurin; conditions = 5 days; measurement = EC50; result = 8.05 µM
